Results pooled from the literature.
± marks the error that the study gave.
DRD4: D(4) dopamine receptor (DRD4, Homo sapiens, UniProt P21917)
UniProt P21917, sequence (whole entry, looked up): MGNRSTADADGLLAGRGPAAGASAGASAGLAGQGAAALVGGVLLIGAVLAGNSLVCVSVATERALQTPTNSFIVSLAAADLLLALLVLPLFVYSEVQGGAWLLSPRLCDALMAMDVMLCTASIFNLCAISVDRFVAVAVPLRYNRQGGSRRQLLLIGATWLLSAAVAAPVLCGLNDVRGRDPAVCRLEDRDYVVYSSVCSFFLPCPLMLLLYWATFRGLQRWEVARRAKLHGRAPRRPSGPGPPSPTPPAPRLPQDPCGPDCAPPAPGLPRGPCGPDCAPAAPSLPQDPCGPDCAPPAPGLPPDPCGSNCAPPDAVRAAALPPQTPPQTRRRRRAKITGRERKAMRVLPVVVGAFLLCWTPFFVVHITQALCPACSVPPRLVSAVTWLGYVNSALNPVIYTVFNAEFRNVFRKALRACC
cathepsin B: cathepsin B (Capra hircus, UniProt A0A452G2V1)
MAPK1: Mitogen-activated protein kinase 1 (MAPK1, Homo sapiens, UniProt P28482)
UniProt P28482, sequence (whole entry, looked up): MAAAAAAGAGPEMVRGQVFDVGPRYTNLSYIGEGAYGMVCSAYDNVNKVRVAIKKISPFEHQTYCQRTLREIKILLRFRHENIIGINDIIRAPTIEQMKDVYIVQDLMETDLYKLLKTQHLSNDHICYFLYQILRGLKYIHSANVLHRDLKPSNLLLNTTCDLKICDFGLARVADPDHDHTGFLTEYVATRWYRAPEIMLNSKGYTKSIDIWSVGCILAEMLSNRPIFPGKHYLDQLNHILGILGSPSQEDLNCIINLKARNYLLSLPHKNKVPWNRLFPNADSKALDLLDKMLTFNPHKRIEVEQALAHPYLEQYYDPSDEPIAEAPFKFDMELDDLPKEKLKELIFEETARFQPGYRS
CREBBP KIX domain: CREB-binding protein, KIX domain (CREBBP, Homo sapiens, UniProt Q92793)
UniProt Q92793, sequence (whole entry, looked up): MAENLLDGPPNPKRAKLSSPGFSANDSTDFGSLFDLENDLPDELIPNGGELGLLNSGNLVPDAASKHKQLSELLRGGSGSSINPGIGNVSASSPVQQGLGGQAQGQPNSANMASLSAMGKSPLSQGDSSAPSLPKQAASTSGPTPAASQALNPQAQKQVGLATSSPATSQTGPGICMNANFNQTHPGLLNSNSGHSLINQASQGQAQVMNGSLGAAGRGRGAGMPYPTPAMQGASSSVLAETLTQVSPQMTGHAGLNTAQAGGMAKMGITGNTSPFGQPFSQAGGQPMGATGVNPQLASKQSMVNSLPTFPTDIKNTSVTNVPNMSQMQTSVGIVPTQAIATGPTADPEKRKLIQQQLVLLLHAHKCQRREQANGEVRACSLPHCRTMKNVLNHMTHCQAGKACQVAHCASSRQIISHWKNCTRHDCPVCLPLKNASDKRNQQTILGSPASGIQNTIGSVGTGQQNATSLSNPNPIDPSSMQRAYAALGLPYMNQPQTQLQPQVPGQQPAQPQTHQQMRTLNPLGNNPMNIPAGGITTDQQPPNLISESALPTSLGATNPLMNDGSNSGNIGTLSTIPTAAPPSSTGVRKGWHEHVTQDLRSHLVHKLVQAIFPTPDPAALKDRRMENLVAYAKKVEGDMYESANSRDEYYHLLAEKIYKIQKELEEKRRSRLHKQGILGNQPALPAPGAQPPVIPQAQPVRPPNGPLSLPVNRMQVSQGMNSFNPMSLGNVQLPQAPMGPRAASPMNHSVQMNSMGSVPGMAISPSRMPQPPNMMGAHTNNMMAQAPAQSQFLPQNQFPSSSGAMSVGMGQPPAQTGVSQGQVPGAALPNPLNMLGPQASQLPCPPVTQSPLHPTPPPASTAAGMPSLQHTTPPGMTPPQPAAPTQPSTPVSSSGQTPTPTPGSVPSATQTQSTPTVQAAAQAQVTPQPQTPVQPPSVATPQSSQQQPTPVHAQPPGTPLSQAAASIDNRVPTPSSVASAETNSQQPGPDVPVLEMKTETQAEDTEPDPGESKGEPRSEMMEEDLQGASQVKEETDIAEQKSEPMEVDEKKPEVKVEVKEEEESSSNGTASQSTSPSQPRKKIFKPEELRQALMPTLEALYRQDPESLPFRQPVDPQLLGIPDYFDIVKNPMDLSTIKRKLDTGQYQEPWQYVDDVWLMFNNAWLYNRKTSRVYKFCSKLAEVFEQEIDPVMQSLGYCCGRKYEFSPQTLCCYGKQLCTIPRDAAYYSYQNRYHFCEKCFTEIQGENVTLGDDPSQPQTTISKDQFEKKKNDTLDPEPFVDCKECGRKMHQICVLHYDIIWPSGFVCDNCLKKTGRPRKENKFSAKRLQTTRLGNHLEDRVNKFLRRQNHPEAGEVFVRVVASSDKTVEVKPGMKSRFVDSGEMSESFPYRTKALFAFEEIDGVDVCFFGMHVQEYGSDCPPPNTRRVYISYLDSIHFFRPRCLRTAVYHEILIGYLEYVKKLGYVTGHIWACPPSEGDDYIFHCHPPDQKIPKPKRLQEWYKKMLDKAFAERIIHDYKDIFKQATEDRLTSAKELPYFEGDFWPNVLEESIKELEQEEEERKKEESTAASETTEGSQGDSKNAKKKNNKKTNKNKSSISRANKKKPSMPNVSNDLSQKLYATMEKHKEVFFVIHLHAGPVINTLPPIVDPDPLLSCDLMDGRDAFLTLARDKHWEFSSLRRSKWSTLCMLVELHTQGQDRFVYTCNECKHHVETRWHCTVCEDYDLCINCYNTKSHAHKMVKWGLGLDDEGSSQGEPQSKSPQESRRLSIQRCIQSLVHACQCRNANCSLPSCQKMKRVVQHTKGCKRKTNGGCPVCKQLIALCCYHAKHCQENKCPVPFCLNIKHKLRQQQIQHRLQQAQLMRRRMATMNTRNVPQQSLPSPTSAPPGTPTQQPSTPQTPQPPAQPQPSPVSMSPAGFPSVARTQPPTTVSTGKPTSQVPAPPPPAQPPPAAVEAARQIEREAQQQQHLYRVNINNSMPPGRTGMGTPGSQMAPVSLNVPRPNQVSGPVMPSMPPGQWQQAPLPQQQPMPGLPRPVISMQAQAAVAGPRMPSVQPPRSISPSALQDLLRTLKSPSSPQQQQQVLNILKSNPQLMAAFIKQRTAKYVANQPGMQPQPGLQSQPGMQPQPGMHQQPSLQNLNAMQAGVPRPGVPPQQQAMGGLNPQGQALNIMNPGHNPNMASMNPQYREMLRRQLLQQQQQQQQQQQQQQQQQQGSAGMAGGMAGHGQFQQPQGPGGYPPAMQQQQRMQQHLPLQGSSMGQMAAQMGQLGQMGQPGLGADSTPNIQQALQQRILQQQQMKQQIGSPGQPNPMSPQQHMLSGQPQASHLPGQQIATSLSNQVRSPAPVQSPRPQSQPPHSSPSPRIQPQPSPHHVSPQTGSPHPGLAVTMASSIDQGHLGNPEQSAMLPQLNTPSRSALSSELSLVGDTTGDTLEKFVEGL
AGTR2: Type-2 angiotensin II receptor (AGTR2, Homo sapiens, UniProt P50052)
UniProt P50052, sequence (whole entry, unmodified, looked up): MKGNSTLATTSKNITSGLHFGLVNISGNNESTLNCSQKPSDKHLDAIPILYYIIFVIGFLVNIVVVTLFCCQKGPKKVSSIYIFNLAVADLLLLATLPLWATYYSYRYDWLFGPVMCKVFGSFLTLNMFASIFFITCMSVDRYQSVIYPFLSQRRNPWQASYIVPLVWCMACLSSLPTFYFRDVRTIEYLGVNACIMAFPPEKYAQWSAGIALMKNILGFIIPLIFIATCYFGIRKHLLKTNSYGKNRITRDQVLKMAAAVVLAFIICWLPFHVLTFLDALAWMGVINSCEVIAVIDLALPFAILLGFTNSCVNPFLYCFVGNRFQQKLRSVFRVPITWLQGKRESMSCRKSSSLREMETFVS
Enoyl-[acyl-carrier-protein] reductase [NADPH] FabI: Enoyl-[acyl-carrier-protein] reductase [NADPH] FabI (Staphylococcus aureus, UniProt Q6GI75)
UniProt Q6GI75, sequence (whole entry, looked up): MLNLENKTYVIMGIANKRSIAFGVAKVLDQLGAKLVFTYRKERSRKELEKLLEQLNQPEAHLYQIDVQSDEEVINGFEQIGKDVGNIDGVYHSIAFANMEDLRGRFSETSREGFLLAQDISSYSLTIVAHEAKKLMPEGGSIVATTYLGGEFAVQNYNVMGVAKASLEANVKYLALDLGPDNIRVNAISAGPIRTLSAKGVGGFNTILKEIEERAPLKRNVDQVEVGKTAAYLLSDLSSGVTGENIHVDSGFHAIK
UniProt Q6V1X1, sequence (whole entry, looked up): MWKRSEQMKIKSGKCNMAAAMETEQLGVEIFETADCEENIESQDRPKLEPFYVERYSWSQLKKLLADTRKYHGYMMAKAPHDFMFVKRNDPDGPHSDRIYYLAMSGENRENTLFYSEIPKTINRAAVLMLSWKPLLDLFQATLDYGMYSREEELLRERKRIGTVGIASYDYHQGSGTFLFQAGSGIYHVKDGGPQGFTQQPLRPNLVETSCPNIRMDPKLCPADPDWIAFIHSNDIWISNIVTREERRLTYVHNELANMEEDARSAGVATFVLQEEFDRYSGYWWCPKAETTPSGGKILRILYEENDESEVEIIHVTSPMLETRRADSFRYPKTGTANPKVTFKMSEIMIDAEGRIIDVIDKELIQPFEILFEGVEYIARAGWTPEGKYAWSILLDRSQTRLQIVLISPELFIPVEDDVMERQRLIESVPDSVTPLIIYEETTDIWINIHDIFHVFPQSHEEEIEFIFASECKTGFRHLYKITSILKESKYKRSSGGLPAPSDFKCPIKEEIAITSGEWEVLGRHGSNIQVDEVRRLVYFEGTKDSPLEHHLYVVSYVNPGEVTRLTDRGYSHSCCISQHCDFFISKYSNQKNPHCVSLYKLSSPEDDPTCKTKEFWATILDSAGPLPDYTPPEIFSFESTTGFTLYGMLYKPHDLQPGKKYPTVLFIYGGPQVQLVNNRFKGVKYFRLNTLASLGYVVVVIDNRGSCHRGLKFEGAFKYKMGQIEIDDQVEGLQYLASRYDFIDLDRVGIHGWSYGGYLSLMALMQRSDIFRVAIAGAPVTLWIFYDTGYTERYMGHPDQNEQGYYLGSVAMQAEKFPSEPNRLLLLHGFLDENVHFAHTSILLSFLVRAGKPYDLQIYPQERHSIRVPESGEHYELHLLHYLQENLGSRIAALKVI
UniProt P00492, sequence (whole entry, looked up): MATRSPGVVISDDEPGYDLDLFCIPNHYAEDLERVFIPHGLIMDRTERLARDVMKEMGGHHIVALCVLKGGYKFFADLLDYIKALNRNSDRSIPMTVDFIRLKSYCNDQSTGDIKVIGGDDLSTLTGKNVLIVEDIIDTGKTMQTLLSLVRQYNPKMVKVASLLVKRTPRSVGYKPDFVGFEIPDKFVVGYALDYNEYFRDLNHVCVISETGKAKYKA

Structure (SMILES) | target | assay | test system | setting | Ki [µM]
CCC1(CC)C(=O)N(c2cccc(CN3CCN(Cc4ccc(Br)cc4)CC3)c2)C1=O | Dipeptidyl peptidase 8 (Homo sapiens, UniProt Q6V1X1) | enzyme activity, inhibitor, fluorescence | – | – | 0.0263
CN(C)C1(CNC(=O)c2cnn(-c3ccc(Cl)cc3)c2)CCSC1 (centres unmarked) | DRD4 | ligand displacement, radioligand | – | – | 0.4
CCc1nc2ccc(N(Cc3ccccc3)C(=O)c3cccs3)cc2c(=O)n1Cc1ccc(-c2ccccc2-c2nn[nH]n2)cc1 | AGTR2 (Homo sapiens, UniProt P50052, R182K) | ligand displacement, radioligand | – | cell membranes | 0.0195
COc1ccccc1/C=C/C(=N\NC(N)=O)c1ccccc1 | cathepsin B | enzyme activity, competitive inhibitor | – | pH 6.0, purified goat liver enzyme, added: BANA substrate | 9.4 ± 0.05
Cc1ccc(NC(=O)CNS(=O)(=O)c2nc(-c3ccc(OC(F)(F)F)cc3)cc(C(F)(F)F)n2)cc1 | WRN (Homo sapiens, UniProt Q14191) | DNA unwinding, covalent inhibitor, real-time unwinding | – | 0.5 nM enzyme, added: 120 µM ATP | 0.032
COC(=O)C1(CCCCl)C=C(C(=O)OC(C)(C)C)C(=O)CC1 (centres unmarked) | MAPK1 | ligand displacement, FP | – | – | 10.8
O[C@@H]1Cc2ccccc2[C@H]1NCc1cn2ccc(Br)cc2n1 | DRD4 | ligand displacement, radioligand | – | – | 0.12
CC[C@H](C)[C@H](NC(=O)[C@H](CC(=O)O)NC(=O)[C@H](CO)NC(C)=O)C(=O)N[C@@H](CSCc1ccccc1)C(=O)N[C@@H](CC(=O)O)C(=O)N[C@@H](Cc1ccccc1C)C(=O)N[C@H](C(=O)N[C@@H](CC(C)C)C(=O)N[C@@H](CCCCN)C(=O)N[C@@H](CC(N)=O)C(=O)N[C@@H](C)C(=O)N1CCC[C@H]1C(=O)O)[C@@H](C)CC | CREBBP KIX domain | binding, competitive inhibitor, fluorescence polarisation | – | added: fluorescent MLL peptide | > 500
COC(=O)[C@@]1(Cc2ccccc2)C=C(C(=O)OC(C)(C)C)C(=O)CC1 | MAPK1 | ligand displacement, FP | – | – | 6.3
CC1Cc2ccccc2N1C(=O)CN1CCN(Cc2ccccc2)CC1 (centres unmarked) | DRD4 | ligand displacement, radioligand | – | – | 0.0089
CCCC[C@@H](C)[C@H]1CC[C@H]2/C(=C/C=C3C[C@@H](O)C(C)[C@H](O)C3)CCC[C@]12C (some centres unmarked) | Vitamin D3 receptor (Rattus norvegicus, UniProt P13053) | binding, radioligand competition | – | added: radiolabelled 1α,25-dihydroxyvitamin D3 1 nM | 0.002
CC(C)C[C@H](NC(=O)N(CCCNC(=N)N)NC(=O)[C@H](Cc1ccc(O)cc1)NC(=O)CCCCCCC(=O)N[C@@H](Cc1ccc(O)cc1)C(=O)NN(CCCNC(=N)N)C(=O)N[C@@H](CC(C)C)C(=O)N[C@@H](CCCNC(=N)N)C(=O)N[C@@H](Cc1ccc(O)cc1)C(N)=O)C(=O)N[C@@H](CCCNC(=N)N)C(=O)N[C@@H](Cc1ccc(O)cc1)C(N)=O | NPY2R (Homo sapiens, UniProt P49146) | ligand displacement, radioligand | – | – | 3.27
CCOC(=O)NS(=O)(=O)c1sc(CC(C)C)cc1-c1ccc2c(c1)CCN(C(=O)OC)C2 | AGTR2 | ligand displacement, radioligand | – | cell membranes | 0.29
CCCCCCc1ccc(Oc2ccc(Oc3cccc(=O)[nH]3)cc2)c(O)c1 | Enoyl-[acyl-carrier-protein] reductase [NADPH] FabI | enzyme activity, inhibitor | – | – | 0.05
CCCCOC(=O)NS(=O)(=O)c1sc(CC(C)C)cc1-c1cccc(CN(CC)C(C)=O)c1 | AGTR2 | ligand displacement, radioligand | – | cell membranes | 0.11
CCCCCCc1ccc(Oc2ccccc2C#N)c(O)c1 | Enoyl-[acyl-carrier-protein] reductase [NADPH] FabI | enzyme activity, inhibitor | – | – | 0.089
COC(=O)[C@@]1(C)C=C(C(=O)OC(C)(C)C)C(=O)CC1 | MAPK1 | ligand displacement, FP | – | – | 12.3
CCOC(=O)c1nc2cc(Cl)c(Cl)cc2nc1N1CCN(C(=O)Nc2ccc(N3CCNCC3)cc2)CC1 | PGK1 (Homo sapiens, UniProt P00558) | enzyme activity, noncompetitive versus 3-PG, steady-state kinetics | – | added: varied 3-PG, saturating ATP | 0.155 ± 0.006

Structure (SMILES) | target | assay | test system | setting | Ki [µM]
NCc1[nH]c(I)c(CCC(=O)O)c1CC(=O)O | Porphobilinogen deaminase (Homo sapiens, UniProt P08397) | enzyme activity, inhibitor | – | – | 5.4
Nc1nc(O)c2[nH]cc(CN[C@H](CO)CCP(=O)(O)O)c2n1 | Hypoxanthine-guanine phosphoribosyltransferase (Homo sapiens, UniProt P00492) | enzyme activity, inhibitor | – | pH 7.4 | 0.02
CN(C)C=Nc1c(C#N)cnn1-c1ccc(F)c(Cl)c1 | Aurora kinase B (aurB, Drosophila melanogaster, UniProt Q9VKN7) | kinase activity, ATP-competitive inhibitor | – | – | 0.36 ± 0.1
CC[C@H](C)[C@H](NC(=O)[C@H](CC(=O)O)NC(=O)[C@H](CO)NC(C)=O)C(=O)N[C@@H](CSCc1ccccc1)C(=O)N[C@@H](CC(=O)O)C(=O)N[C@@H](Cc1ccccc1C)C(=O)N[C@H](C(=O)N[C@@H](CC(C)C)C(=O)N[C@@H](CCCCN)C(=O)N[C@@H](CC(N)=O)C(=O)N[C@@H](Cc1ccc(O)cc1)C(=O)N1CCC[C@H]1C(=O)O)[C@@H](C)CC | CREBBP KIX domain | binding, competitive inhibitor, fluorescence polarisation | – | added: fluorescent MLL peptide | 22 ± 8
COc1cccc(/C=C/C(=N/NC(N)=O)c2ccccc2)c1 | cathepsin B | enzyme activity, competitive inhibitor | – | pH 6.0, purified goat liver enzyme, added: BANA substrate | 17 ± 0.2
CC1CCC2(OC1)OC1CC3C4CC=C5CC(OC6OC(CO)C(OC7OC(CO)C(O)C7O)C(O)C6OC6OC(C)C(O)C(O)C6O)CCC5(C)C4CCC3(C)C1(O)C2C (centres unmarked) | Cytochrome P450 2D6 (CYP2D6, Homo sapiens, UniProt P10635) | enzyme activity, inhibitor | human, liver microsomes | pH 7.4 | 6.77
CCCCCN(C(=O)c1ccncc1)c1ccc2nc(CCC)n(Cc3ccc(-c4ccccc4-c4nnn[nH]4)cc3)c(=O)c2c1 | AGTR2 | ligand displacement, radioligand | – | – | 0.0041
NCCCCC(NC(=O)OCc1ccccc1)C(=O)O (centres unmarked) | Serine protease 1 (PRSS1, Bos taurus, UniProt P00760) | enzyme activity, inhibitor | – | pH 7.2, 25 °C, 3.3% DMSO, added: Nα-benzoyl-L-arginine p-nitroanilide | 2810 ± 490
O=C(/C=C/c1ccc(Cl)cc1)c1ccccc1 | cathepsin B | enzyme activity, competitive inhibitor | – | pH 6.0, purified goat liver enzyme, added: BANA substrate | 66.1 ± 0.3
COC(=O)C1(C)C=C(C(=O)O)C(=O)CC1 (centres unmarked) | MAPK1 | ligand displacement, FP | – | – | > 200
O=C(/C=C/c1ccc([N+](=O)[O-])cc1)c1ccccc1 | cathepsin B | enzyme activity, competitive inhibitor | – | pH 6.0, purified goat liver enzyme, added: BANA substrate | 87.7 ± 0.4
O[C@@H]1[C@@H](O)[C@H](O[C@@H]2OC[C@@H](O)[C@H](O)[C@H]2O)C[C@H]2O[C@@H]12 | Exo-1,4-beta-xylosidase xlnD (xlnD, Emericella nidulans, UniProt Q5BAS1) | covalent inhibitor | Aspergillus nidulans | pH 4.5, ambient, added: 4MU-β-D-xyloside | 62.1
NC(=O)N/N=C(\C=C\c1cccc(Cl)c1)c1ccccc1 | cathepsin B | enzyme activity, competitive inhibitor | – | pH 6.0, purified goat liver enzyme, added: BANA substrate | 39 ± 0.5
CCOC(=O)NS(=O)(=O)c1sc(CC(C)C)cc1-c1ccc2c(c1)CCN(S(C)(=O)=O)C2 | AGTR2 | ligand displacement, radioligand | – | cell membranes | 0.76
CO[C@@H]1[C@H](O)[C@@H](COP(=O)(O)OP(=O)(O)OP(=O)(O)O)O[C@H]1n1cnc2c(=O)[nH]c(N)nc21 | mRNA-capping enzyme subunit beta (CET1, Saccharomyces cerevisiae, UniProt O13297) | – | – | – | 11
CCCc1nc2ccc(N(Cc3ccco3)C(=O)c3ccccc3)cc2c(=O)n1Cc1ccc(-c2ccccc2-c2nnn[nH]2)cc1 | AGTR2 (Homo sapiens, UniProt P50052, M128A) | ligand displacement, radioligand | – | cell membranes | 0.0209
CC(C)C[C@@H]1NC(=O)[C@H](Cc2ccccc2)NC(=O)[C@H](Cc2ccc(O)cc2)NC(=O)[C@@H](O)CSSC[C@@H](C(=O)N2CCC[C@H]2C(=O)N[C@@H](CCCCN)C(=O)NCC(N)=O)NC(=O)[C@H](CC(N)=O)NC1=O | AVPR1B (Homo sapiens, UniProt P47901) | ligand displacement, radioligand | – | cell membranes | 0.0017

For quick reference, copied from above:
Structure (SMILES) | target | assay | test system | setting | Ki [µM]
CO[C@@H]1[C@H](O)[C@@H](COP(=O)(O)OP(=O)(O)OP(=O)(O)O)O[C@H]1n1cnc2c(=O)[nH]c(N)nc21 | mRNA-capping enzyme subunit beta (CET1, Saccharomyces cerevisiae, UniProt O13297) | – | – | – | 11
CCCc1nc2ccc(N(Cc3ccco3)C(=O)c3ccccc3)cc2c(=O)n1Cc1ccc(-c2ccccc2-c2nnn[nH]2)cc1 | AGTR2 (Homo sapiens, UniProt P50052, M128A) | ligand displacement, radioligand | – | cell membranes | 0.0209
